# Results of several laboratories.
# Every numbered part comes from another study and shows a few of its results, in no order.

# Block 1 — method: aptamer microarray, sandwich; form: DNA with 2'F-ANA; medium: in vitro; concentration: 200 nM; together with: Cy3 exosite-II aptamer, 400 nM; direction: higher = stronger binding; sequence: GGTTGGTGTGGTTGG
# Target: Prothrombin, mature alpha-thrombin (F2, Homo sapiens, UniProt P00734)
# Setting: whole 15-mer aptamer, many near background
Modification,mean fluorescence intensity [a.u.]
2'F-ANA at 5 7 8 9 11 15,75.6
2'F-ANA at 1 3 4 5 7 11 12 14,123
2'F-ANA at 2 4 6 8 12 13 14 15,120
2'F-ANA at 2 5 6 8 9 10 14 15,48.4
2'F-ANA at 3 4 5 6 7 8 9 11 12 14,52.1
2'F-ANA at 2 3 5 14,51.7
2'F-ANA at 1 4 6 9 10 13,49.1
2'F-ANA at 3 5 13 14 15,56.4
2'F-ANA at 1 2 3 4 5 9 10 15,48.6
2'F-ANA at 1 2 5 6 7 9 11 13 14,51.1
2'F-ANA at 1 5 7 11 12 14 15,46
2'F-ANA at 3 4 6 9 10 11 12,270
2'F-ANA at 3 4 7 11 14 15,478
2'F-ANA at 3 5 7 10 12 13,75.2
2'F-ANA at 1 5 6 8 11 14 15,45.2
2'F-ANA at 1 2 9 12,390
2'F-ANA at 3 4 5 6 7 9 10 13 15,82.5
2'F-ANA at 4 5 6 8 10 13,55.6
2'F-ANA at 1 2 5 6 9 10 14 15,62
2'F-ANA at 4 6 8 11,267
2'F-ANA at 5 6 8 11 12 13 14 15,51.7
2'F-ANA at 3 4 9 11 13,496
2'F-ANA at 3 8 12 13 15,1230
2'F-ANA at 1 2 5 7 9 12 14,59

# Block 2 — method: RNA Bind-n-Seq; form: RNA; medium: in vitro; concentration: 365 nM; baseline: no-protein control; direction: higher = stronger binding
# Target: RNA binding protein fox-1 homolog 2, RRM domain, GST-SBP tag (RBFOX2, Homo sapiens, UniProt O43251-10, residues 100-194)
# Setting: natural RNA segment, single round, ends assumed
# Constant ends, left off below: GGGAGUUCUACAGUCCGACGAUC … UGGAAUUCUCGGGUGCCAA
# Residues (chain): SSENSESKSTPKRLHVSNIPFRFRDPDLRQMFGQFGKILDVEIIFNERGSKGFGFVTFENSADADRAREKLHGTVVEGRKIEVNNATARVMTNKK
Sequence,RBNS enrichment (R)
CUUCUGGUGGAGCUGUGCCUGGCCCUGUAGGCCCAGGGUUGGCUGGAAGGUGACAUCUGUGUUUCGUUUUAGCUGAGGUUGGCAGAAACGUUCCCAAACUCCCCCAGCCC,0.285
GCUCUGGGUUUUCUUUAUCCUGCCUCCCGAGACUUCUGACCCCCCUUUCCCAGCUUCAGAUCUUGGGGAGAUCCAUCCAAGGGGUUCAGCCCUCUCCUGCCUCCAUGCCU,0.404
GCUGGGAACAAGAGCAGCCCACUCUGCAGGAAUGCAACCUGAGCUGCAAACCAGGAGAAAAGGAGACUCAUUUAGGAUCUGAUCUGUAAGUACAUUGGAAAGGAAAGAAA,0.412
AGGCCAGAUCUGUGCUCAAGCCAUAGUUCUGCUUAGAAAGGGAUGCCCCACCCUUACCGGACACUGGGAAGAACUGUUGGCCCCUAGAAACCAAAGGCCAAACUGAGGCU,0.406
UUGUUAUACAGUCCAGGAACUGGUAAGUGCCCUCACCAGCGAGCAUGGCAGGUAGCUUCACUCAGUGAGUAGCAAGGGCACUCAGCUCUGAGGAUCUCAAUUCAUACAGG,1.18
ACCUACGUACUUAUAUCAGCACCAUGUAUGUAGGUGUGAUAGUACUUUCAAACAGCGCCUCCACCUGGCCUACUCUGUUAUUUCCACCUGUUUGGGUAGGGCCAUUUAAC,1.24
UUCAAAAGAAAACAUAAGAGAUUAUUGAGUUCUUGGGACUGGAUCCUUUAUUUCAUAAGUUCAGAUCAUCUUAAAUGAAAAUGCCAUGAUUAUCUGCAGUUAAGUAGAUG,0.548
UGGCCUCAUCUGGACCCUUCCUGUUAUUAAUAAAACGCUUCUGGAGGCCAGAUCUGUGCUCAAGCCAUAGUUCUGCUUAGAAAGGGAUGCCCCACCCUUACCGGACACUG,0.735
CAGGUUGGGUUUGCCAAACGUCUAAUUACCAAGCCAGGAUUUGUGCCAACAAAGCCACAUGGCUGUCCUAGUGAGCUUCCUUUCUUACCUGUCUUGAGCUGGGCGUCUCU,0.746
AGAAAUGCACACCUGUCAGCCCAGGACCAGCUUUGGUGGCUAAAGGGAAUAUUUUAACUCGCAAGGUGAUGUUCUGUACAAAACGUGGUAUAUGUUACCCACAGUCCAUU,0.287
UUUAUAAACAGCUUAAUAUAAAACAUUAUAGAUUUAGUGUUUGGCUUUUUUCCUUAUAAGUUUAUAAGUUUGAUUUCAGAUGUUGGAAAUGUGUGCUUUAUAGUGUUUAC,0.593
GUUAAUUGGUAUUCAUUCACAAUGCAGUUGAAGGGGGAAGGCUCCACUGCAUUCUUUGGCUAAGGCCUGAAUGCUUGCUCAUCUGUAAGAUCUAUACUCGAGGUUUUGUU,0.663

# Block 3 — method: universal PBM; form: double-stranded DNA, one strand shown; medium: in vitro; concentration: 600 nM; direction: higher = stronger binding
# Target: Sal-like protein 4, full length isoform A (SALL4, Homo sapiens, UniProt Q9UJQ4, residues 1-1053)
# UniProt Q9UJQ4, sequence (whole entry, looked up): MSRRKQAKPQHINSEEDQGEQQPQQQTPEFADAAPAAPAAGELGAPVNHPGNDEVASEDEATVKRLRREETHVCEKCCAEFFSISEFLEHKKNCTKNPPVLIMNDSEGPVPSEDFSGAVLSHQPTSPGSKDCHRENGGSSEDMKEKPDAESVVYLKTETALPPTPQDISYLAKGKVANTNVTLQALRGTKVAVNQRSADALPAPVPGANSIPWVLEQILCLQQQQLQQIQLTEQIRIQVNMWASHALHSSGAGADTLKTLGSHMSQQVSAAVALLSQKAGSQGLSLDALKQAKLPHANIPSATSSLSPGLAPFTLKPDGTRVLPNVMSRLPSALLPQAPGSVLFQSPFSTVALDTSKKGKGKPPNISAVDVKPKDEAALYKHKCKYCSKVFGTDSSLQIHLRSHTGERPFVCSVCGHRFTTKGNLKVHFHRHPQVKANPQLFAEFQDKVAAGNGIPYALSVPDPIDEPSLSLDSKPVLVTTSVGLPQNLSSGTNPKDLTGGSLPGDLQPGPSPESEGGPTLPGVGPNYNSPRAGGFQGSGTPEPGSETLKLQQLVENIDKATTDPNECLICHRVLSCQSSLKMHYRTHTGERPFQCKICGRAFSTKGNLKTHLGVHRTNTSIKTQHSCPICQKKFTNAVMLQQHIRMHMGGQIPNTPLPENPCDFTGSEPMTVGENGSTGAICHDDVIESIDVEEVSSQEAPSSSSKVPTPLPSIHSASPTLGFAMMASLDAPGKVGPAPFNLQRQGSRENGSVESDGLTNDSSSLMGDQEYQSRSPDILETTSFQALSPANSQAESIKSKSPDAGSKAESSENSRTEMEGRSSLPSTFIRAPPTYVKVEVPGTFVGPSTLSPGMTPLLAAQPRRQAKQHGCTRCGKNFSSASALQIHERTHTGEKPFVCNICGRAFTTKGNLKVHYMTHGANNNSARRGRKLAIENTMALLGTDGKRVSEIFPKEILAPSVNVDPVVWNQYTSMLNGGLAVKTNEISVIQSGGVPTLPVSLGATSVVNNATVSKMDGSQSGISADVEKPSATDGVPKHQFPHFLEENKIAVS
# Setting: 8-mer, flanks averaged, mean of replicates
Sequence,E-score
CAGTGCTC,-0.0767
CGCGGGTC,-0.311
AGTACCAG,-0.16
AAGGCGAC,-0.2
AATGAAGA,0.241
ATTCATTG,0.204
GCGTGCGA,-0.261
GCCAATCC,-0.18
CACGCGAG,-0.236
AAAGGAAA,0.262
CGGAGGCC,-0.379
ACTTAGAT,0.0496
GAATTCTC,0.02
TAAATCCA,0.147
CTGAAACC,-0.00869
GCACGCCA,-0.338

# Block 4 — method: protein binding microarray; form: double-stranded DNA, one strand shown; medium: in vitro; concentration: not given; baseline: not given; direction: higher = stronger binding
# Target: Histone acetyltransferase KAT6A, winged helix 2, GST fusion (KAT6A, Homo sapiens, UniProt Q92794, residues 85-181)
# Setting: 8-mer, flanks averaged, mean of 2 arrays, mostly near background
# Construct (chain): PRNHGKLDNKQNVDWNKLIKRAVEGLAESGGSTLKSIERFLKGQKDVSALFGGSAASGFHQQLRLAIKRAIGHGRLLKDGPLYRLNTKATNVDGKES
Sequence,E-score
GCCTAGCA,0.0046
ACAGCCGC,0.0771
CATTGCTA,0.109
TCATCACA,-0.176
AATCGCTC,-0.0364
AACCACTG,0.0293
GATTCCCC,-0.0476
CAGTGATG,0.0607
AAATCAAT,0.148
AATAGATT,0.0645
AACTCGCT,0.221
AACGTAAG,-0.125
GCAAGAGC,0.146
CTTAAGCC,0.0212
CCGTCTCC,0.129
CCCCCTAG,-0.097
ACACTGTC,-0.0752
TACAAACA,0.0736
GCCTAAAA,0.085
GAAAATGC,0.0292
CGTCAATC,-0.0979
ACCGTGTA,-0.189
CTATCATA,-0.00895
ACAGTCGT,-0.161
CCAAAAGC,0.14

# Block 5 — method: protein-binding microarray; form: double-stranded DNA, one strand shown; medium: in vitro; concentration: 250 nM; setting: 60-bp whole probe; together with: salmon DNA 0.4 mg/ml; baseline: random background probes; direction: higher = stronger binding; constant ends, left off below: GCCTAGCAC … GTCTTGATTCGCTTGACGCTGCTG
# Target: Interferon regulatory factor 5, full length, phosphomimetic (IRF5, Homo sapiens, UniProt Q13568-2, residues 1-514, K96S/S451D/S453D/S456D/S462D)
Sequence,log fluorescence
TTTGGTTCCGGTTTCGGTTAGTGCTAG,9.88 z-score
GACGGATTGGGGTTTCGGGACGTGCTA,1.61 z-score
TTTTTTTTCCTAATTGAACCGTGCTAG,1.22 z-score
GACGGACTGGGGACTGGGCACGTGCTA,-0.475 z-score
TTAGGTATCGACTCTGGGTTAGTGCTA,2.52 z-score
TTAGGTATACTTTTCCTTTAGTGCTAG,0.369 z-score
GACGGTCCCGGACTGGGGACGTGCTAG,-0.658 z-score
TTAAGTATCGGACTGGGTTAGTGCTAG,2.69 z-score
TCATGTTTGGTGTCTTTTACTGTGCTA,0.506 z-score
GACGGTTTCGGTTTCGGGATGTGCTAG,10.5 z-score
TATAGCTGATACATATAGCCGTGCTAG,0.0377 z-score
TTAGGTTACCTTCTCCTTTAGTGCTAG,0.258 z-score
GAAAATGCCCTTTTGGTGAGGTGCTAG,1.23 z-score
GACGATTTCGGGCATCGAGACGTGCTA,2.33 z-score
GACTTTTTACCTGTGGTGTAGTGCTAG,0.303 z-score
TCAAATTCCTGAAATCTCACTGTGCTA,0.477 z-score
TTAGGTTTCGGGATCGGTTAGTGCTAG,7.19 z-score
TTAGGTTTCGGACTGGGCTAGTGCTAG,5.36 z-score
TTAGGCTTCCTTTCCCTTTAGTGCTAG,0.463 z-score
